Measurements collected from several papers.
Protocols differ between the studies behind these lines. “And” joins repeats or separate records; there may be more than shown. ± marks the error that the study gave.

CC(=O)c1c(C)c2cnc(Nc3ccc(C4CCN(CCS(C)(=O)=O)CC4)cn3)nc2n(C2CCCC2)c1=O
patients with TRAE grade ≥3 (HR+/HER2- advanced breast cancer patients; oral, 200 mg): 66.7%

C[C@]1(CO)Cc2ncn(-c3ccc(C#N)c(Cl)c3)c2C(=O)O1
subjects with drug-related dizziness (human, Chinese; 60 mg single dose): 0%

CCCCCCCCCCCCCCCC(=O)N[C@@H](CCC(=O)NCCCC[C@H](NC(=O)[C@H](CC(=O)O)NC(=O)[C@H](CO)NC(=O)[C@@H](NC(=O)[C@H](Cc1ccccc1)NC(=O)[C@@H](NC(=O)CNC(=O)[C@H](CCC(N)=O)NC(=O)[C@H](CO)NC(=O)[C@@H](N)Cc1c[nH]cn1)[C@@H](C)O)[C@@H](C)O)C(=O)N[C@@H](CO)C(=O)N[C@@H](CCC(=O)O)C(=O)N[C@@H](Cc1ccc(O)cc1)C(=O)N[C@@H](CC(C)C)C(=O)N[C@@H](CC(=O)O)C(=O)N[C@@H](CO)C(=O)N[C@@H](CCC(=O)O)C(=O)N[C@@H](CCCNC(=N)N)C(=O)N[C@@H](C)C(=O)N[C@@H](CCCNC(=N)N)C(=O)N[C@@H](CC(=O)O)C(=O)N[C@@H](Cc1ccccc1)C(=O)N[C@H](C(=O)N[C@@H](C)C(=O)N[C@@H](Cc1c[nH]c2ccccc12)C(=O)N[C@@H](CC(C)C)C(=O)N[C@@H](CCC(=O)O)C(=O)N[C@@H](C)C(=O)NCC(=O)NCC(=O)O)C(C)C)C(=O)O
treatment-related adverse events (refers to: decreased appetite; human, CrCl ≥45 to <60 mL/min; subcutaneous, 100 µg single dose): 0%

C=CC(=O)N1CC[C@H](n2nc(C#Cc3cc(OC)cc(OC)c3)c3c(N)ncnc32)C1
adverse drug reaction incidence (patients with advanced solid tumours; oral, dose not given, Vomiting, any grade, QD, added: ferric citrate hydrate): 100%

CC(C)[C@@H]1NC(=O)CNC(=O)[C@H](CC(N)=O)NC(=O)[C@H](CCCNC(=N)N)NC(=O)[C@H](Cc2ccc(O)cc2)NC(=O)[C@H](C(C)C)NC(=O)[C@@H](NC(=O)[C@@H](NC(=O)[C@H](CC(N)=O)NC(=O)[C@H](Cc2c[nH]c3ccccc23)NC(=O)[C@H](C)NC(=O)[C@H](Cc2ccccc2)NC(=O)CN)C(C)C)CSSC[C@@H](C(=O)N[C@@H](Cc2cnc[nH]2)C(=O)N[C@@H](CCCNC(=N)N)C(=O)N[C@@H](CCCNC(=N)N)C(=O)N[C@@H](C)C(=O)N[C@@H](CC(N)=O)C(N)=O)NC(=O)[C@H](C(C)C)NC(=O)[C@H](CCCNC(=N)N)NC1=O
ALT (ICR mice, serum; intraperitoneal, 5 mg/kg, day 5): 48 ± 3.26 IU/L

O=C(O)CCCOc1ccc(F)cc1-c1cc(-c2ccccc2C(F)(F)F)n(-c2ccccc2)n1
blood chemistry (refers to: Fbg; Crl:CD(SD) rats, female, blood; iv, 25 µg/kg, 1 day): 204 ± 6.8 mg/dL

O=c1ccc2ncc(=O)n3c2n1C[C@H]3CN1CCC(NCc2cc3c(cn2)OCCC3)CC1
AUC(0-inf) (healthy human volunteers, plasma; oral, 1500 mg single dose, geometric mean, alone): 18100 ng·h/mL

COc1cc(C(=O)NC2CCN(C)CC2)c(F)cc1Nc1ncc(C(F)(F)F)c(Oc2cccc3c2C(=O)N(C)C3)n1
fraction excreted in urine (0-48 h) (human patients, urine; oral, 10 mg single dose, geometric mean; reference: dose): 2.49%

Cc1cn([C@H]2O[C@@H](CO[P@@](=O)(N[C@@H](C)C(=O)OC(C)C)Oc3ccccc3)[C@H](O)[C@H]2F)c(=O)[nH]c1=O
patients with TEAE (refers to: common cold; human; 50 mg): 0%

O=C(Nc1ccccc1)C1CCN(C(=O)Oc2cccnc2)CC1
subjects with Photophobia adverse event (adverse event reporting; healthy women; oral, 100 mg, 9 days): 0%

COc1ccc(CCC2CCCC(CCc3ccc(OC)cc3)N2C[C@@H](O)CO)cc1.Cl (stereo in doubt)
action potential amplitude change (rabbit Purkinje fibres; 0.03 µM, cycle length 1 s; reference: baseline): 1.2 ± 2.4 mV

COc1cc2c(Oc3ccc4[nH]c(C)cc4c3F)ccnc2cc1OCC1(N)CC1
grade 3 Hematuria (paediatric recurrent refractory sarcoma; 8 mg): 0%

COc1cccc(Oc2ccccc2NC(=O)CNC(=O)c2cccc3ccccc23)c1
serum phosphorus (esterase-deficient SCID mice, male; oral, 15 mg/kg/day, 14 days, toxicity study): 9.7 mg/dL and 10.9 mg/dL and 12.1 mg/dL

Cn1cc(-c2nc(N[C@@H]3CCCC[C@@H]3N)c(F)c3c2C(=O)NC3)cn1
hemorrhagic adverse events (refers to: Hemoptysis; patients with relapsed or refractory AML; oral, 60 mg twice daily): 13%

[O-][S+]1CCc2nc(N3CCC(c4ncc(Cl)cn4)CC3)nc(NC3(CO)CCC3)c21 (stereo not shown)
bilirubin (refers to: mean; idiopathic pulmonary fibrosis patients, blood; 18 mg twice daily, at last treatment): 8 µmol/L

CO[C@H]1C[C@@H]2CC[C@@H](C)[C@@](O)(O2)C(=O)C(=O)N2CCCC[C@H]2C(=O)O[C@H]([C@H](C)C[C@@H]2CC[C@@H](OC(=O)NCCOCCOCCOCCOCCOCCOCCOCCOCCC(=O)N3CCc4cc(Cn5nc(-c6ccc7oc(N)nc7c6)c6c(N)ncnc65)ccc4C3)[C@H](OC)C2)C[C@@H](O)[C@H](C)/C=C(\C)[C@@H](O)[C@@H](OC)C(=O)[C@H](C)C[C@H](C)/C=C/C=C/C=C/1C
TRAE incidence (phase 1 dose escalation, refers to: diarrhoea; advanced solid tumour patients; intravenous, 6 mg weekly, grade ≥3): 0%

CCc1ccc(CC/C=C/c2ccc3c(c2)C(=O)CC3)cc1
Albumin (Sprague-Dawley rat, female; oral, 450 mg/kg/day, 14 days): 36.5 g/L

O=C1Nc2cc3[nH]nc(-c4ccncc4)c3cc2CN1Cc1ccccc1
patients with nausea (CTCAE v4.03; human, relapsed or refractory advanced solid tumours; intravenous, 7.2 mg/kg, pooled schedules): 20%

CC(C)C[C@H](NC(=O)[C@H](CCCCN)NC(=O)OCC1c2ccccc2-c2ccccc21)C(=O)N[C@H](C(=O)N[C@@H](Cc1ccccc1)C(=O)N[C@@H](Cc1ccccc1)C(=O)N[C@@H](CCCCN)C(=O)NCC(=O)N[C@@H](Cc1ccccc1)C(=O)N[C@@H](C)C(=O)N[C@@H](Cc1c[nH]c2ccccc12)C(=O)N[C@@H](CC(N)=O)C(=O)N[C@H](C(=O)N[C@H]1CSSC[C@@H](C(=O)N[C@@H](Cc2c[nH]cn2)C(=O)N[C@@H](CCCNC(=N)N)C(=O)N[C@@H](CCCNC(=N)N)C(=O)N[C@@H](C)C(=O)N[C@@H](CC(N)=O)C(N)=O)NC(=O)[C@H](C(C)C)NC(=O)[C@H](CCCNC(=N)N)NC(=O)[C@H](C(C)C)NC(=O)CNC(=O)[C@H](CC(N)=O)NC(=O)[C@H](CCCNC(=N)N)NC(=O)[C@H](Cc2ccc(O)cc2)NC(=O)[C@H](C(C)C)NC1=O)C(C)C)C(C)C
plateletcrit (ICR mice, blood; intraductal mammary, 5 mg/kg, day 5): 0.03%

O=S(=O)(Nc1ccccc1)c1ccc(NC(=S)Nc2ccccc2)cc1
blood cell fraction (refers to: MO%; male mouse, blood; oral, 80 mg/kg daily, 14 days): 4.4%

C[C@]1(O)C[C@@](N)(c2ccc(-c3nc4n(c3-c3ccccc3)COc3ccncc3-4)cc2)C1
patients with Rash TEAE (human, advanced or metastatic solid tumours; dose not given, all patients, any grade): 58.8%

CCCC(CCC)NC(=O)c1ccc2c(c1)OCO2
PCE/NCE ratio (Swiss albino CD-1 mice, male, bone marrow; intraperitoneal, 350 mg/kg, 48 h): 0.9

CC[C@H](C)[C@H](NC(=O)[C@H](Cc1ccccc1)NC(=O)[C@H](CCC(=O)O)NC(=O)[C@H](CCCNC(=N)N)NC(=O)[C@H](C)NC(=O)[C@H](C)NC(=O)[C@H](CCC(N)=O)NC(=O)[C@H](CCC(=O)O)NC(=O)[C@H](CCC(=O)O)NC(=O)[C@H](CC(C)C)NC(=O)[C@H](Cc1ccc(O)cc1)NC(=O)[C@H](CO)NC(=O)[C@H](CO)NC(=O)[C@@H](NC(=O)[C@H](CC(=O)O)NC(=O)[C@H](CO)NC(=O)[C@@H](NC(=O)[C@H](Cc1ccccc1)NC(=O)[C@@H](NC(=O)CNC(=O)[C@H](CCC(=O)O)NC(=O)[C@H](C)NC(=O)CCc1cnc[nH]1)[C@@H](C)O)[C@@H](C)O)C(C)C)C(=O)N[C@@H](C)C(=O)N[C@@H](Cc1c[nH]c2ccccc12)C(=O)N[C@@H](CC(C)C)C(=O)N[C@H](C(=O)N[C@@H](CCCNC(=N)N)C(=O)NCC(=O)N[C@@H](CCCNC(=N)N)C(=O)N[C@@H](CCCCNC(=O)COCCOCCNC(=O)COCCOCCNC(=O)CC[C@H](NC(=O)CCCCCCCCCCCCCCCCC(=O)O)C(=O)O)C(=O)NCC(=O)NCC(=O)N[C@@H](CO)C(=O)N[C@@H](CCCCNC(=O)[C@H](CCCCNC(=O)[C@H](CCCCNc1c(NCCCCCN(O)C(=O)CCC(=O)NCCCCCN(O)C(=O)CCC(=O)NCCCCCN(O)C(C)=O)c(=O)c1=O)Nc1c(NCCCCCN(O)C(=O)CCC(=O)NCCCCCN(O)C(=O)CCC(=O)NCCCCCN(O)C(C)=O)c(=O)c1=O)NC(=O)[C@H](CCCCNc1c(NCCCCCN(O)C(=O)CCC(=O)NCCCCCN(O)C(=O)CCC(=O)NCCCCCN(O)C(C)=O)c(=O)c1=O)Nc1c(NCCCCCN(O)C(=O)CCC(=O)NCCCCCN(O)C(=O)CCC(=O)NCCCCCN(O)C(C)=O)c(=O)c1=O)C(=O)O)C(C)C [zirconium-89 labelled]
tissue uptake (ex vivo gamma counting; Sprague-Dawley rat, male, brain; intravenous, 1 nmol, 24 h): 0.028 %ID/g and 0.027 %ID/g and 0.022 %ID/g and 0.019 %ID/g

N[C@@H](Cc1ccc(O)c(O)c1)C(=O)O
Ctrough ratio (human, plasma; oral, dose not given, carbidopa/levodopa every 4 h, added: opicapone; reference: after over before opicapone): 3.17

Cn1ncc(-c2nc(N[C@H]3CC[C@H](N)CC3)ncc2Cl)c1CC1CC1
pyrexia incidence (phase I dose escalation; human patients; dose not given, any-grade TEAE): 33%

C[C@@H](NC(=O)N1C(=O)[C@H](Cc2ccnc(N)c2)[C@H]1C(=O)O)C1CCCCC1
incidence of AEs leading to death (healthy adult Chinese volunteers; continuous intravenous infusion, 0.6 mg/kg/h, 5-day infusion, CTCAE 5.0 grading): 0%

C[C@@H]1NC(=O)[C@H](CCCCNC(=O)CO/N=C/C(=O)NCCCC[C@@H]2NC(=O)[C@@H](Cc3ccccc3)NC(=O)[C@H](CC(=O)O)NC(=O)CNC(=O)[C@H](CCCNC(=N)N)NC2=O)NC(=O)CNC(=O)[C@@H]2CCCN2C(=O)[C@H](CCCCNC(=O)CO/N=C/C(=O)NCCCC[C@@H]2NC(=O)[C@@H](Cc3ccccc3)NC(=O)[C@H](CC(=O)O)NC(=O)CNC(=O)[C@H](CCCNC(=N)N)NC2=O)NC(=O)[C@H](CCCCNC(=O)[C@H](CCCCN)NC(=O)[C@H](Cc2ccccc2)NC(=O)CNC(=O)CN2CCCNCCNCCCNCC2)NC(=O)[C@H](CCCCNC(=O)CO/N=C/C(=O)NCCCC[C@@H]2NC(=O)[C@@H](Cc3ccccc3)NC(=O)[C@H](CC(=O)O)NC(=O)CNC(=O)[C@H](CCCNC(=N)N)NC2=O)NC(=O)CNC(=O)[C@@H]2CCCN2C(=O)[C@H](CCCCNC(=O)CO/N=C/C(=O)NCCCC[C@@H]2NC(=O)[C@@H](Cc3ccccc3)NC(=O)[C@H](CC(=O)O)NC(=O)CNC(=O)[C@H](CCCNC(=N)N)NC2=O)NC1=O [copper-64 labelled]
tissue uptake (normal mice, liver; intravenous, 0.74 MBq, 24 h post-injection): 27.1 ± 2.22 %ID/g

CC(C)CC(=O)OC[C@H]1O[C@@](C#N)(c2ccc3c(N)ncnn23)[C@H](O)[C@@H]1O
remaining compound (Dogs plasma; 5 µM, 60 min): 83.6 ± 1.23%

S=c1oc(-c2ccccc2)nn1CN1CCN(Cc2ccccc2)CC1
serum creatinine (Wistar rat female; oral, 100 mg/kg, acute toxicity OECD 423): 0.6 ± 0.04 mg/dL

CC(C)(O)c1cc(Nc2cc(Oc3cn(C4CC4)nc3C3CCOCC3)ccn2)ccn1
treatment-related adverse events (Diarrhea; patients with advanced cancer, grade 4 glioma expansion; oral, 50 mg twice daily, grade ≥3, 2 weeks on/2 weeks off schedule): 0%

COc1ncccc1-c1cnn2ccc(N3CCN(C(=O)OC(C)C)CC3)nc12
drug concentration (rat, STZ model, plasma; oral, 10 mg/kg, 240 min): 3.1 µM

COc1ccc2nc3cc(Cl)ccc3c(Nc3cc(CN4CCCC4)c(O)c(CN4CCCC4)c3)c2n1
mean corpuscular haemoglobin (mouse, blood; intraperitoneal, 28 mg/kg): 16.8 pg

CC(C)(C)c1cc(-n2nc3ccccc3n2)c(O)c(C(C)(C)C)c1
daily dermal uptake, percentile (exposure assessment; human, age 2-3 years; concentration not given, spray sunscreen, 95th percentile): 20.9 ng/kg body weight/day

CCN1CCN(Cc2ccc(Nc3ncc(F)c(-c4cc(F)c5nc6n(c5c4)[C@H](C)CCC6)n3)nc2)CC1
Hypertriglyceridemia incidence, any grade (advanced solid tumour patients; Phase Ia monotherapy): 70.8%

CN(C)CCCN1c2ccccc2Sc2ccc(Cl)cc21
fu,mic (human liver microsomes 0.5 mg/mL; 5 µM, 24 h): 0.139

Cc1ccc(F)c2cc(C(=O)N[C@@H]3CCC[C@H](N4CC[C@H](N(C)S(C)(=O)=O)C4)C3)[nH]c12
plasma concentration (CD1 mouse, plasma; intravenous, 1 mg/kg, 0.5 h): 129 ng/mL

CC(=O)[C@H]1[C@H](C#N)C[C@H]2[C@@H]3CC=C4C[C@@H](O)CC[C@]4(C)[C@H]3CC[C@@]21C
mRNA level (qPCR, refers to: Cyp2c29; wild-type mice, liver; 10 mg/kg, 3 days; reference: vehicle): increased
